Published values of several laboratories.
Protocols differ between the studies behind these lines. ± marks the error that the study gave. ≈ marks a conversion by molar mass, not a printed value.

SMILES	test	test system	setting	how to read	endpoint	result
OC1(C(F)(F)F)CCN(c2nc(Nc3ccnc(C(F)(F)F)c3)nc(-c3cccc(C(F)(F)F)n3)n2)C1 (stereo not drawn)	–	monkey, plasma	oral, 3 mg/kg	–	half-life	18.3 ± 3.02 h
CCCCN1C(=O)c2cccc3c(NCCCCN4CCOCC4)ccc(c23)C1=O	–	water	pH 6.0	–	fluorescence quantum yield	0.34
C=CC(=O)Nc1cc(Nc2nccc(-c3c[nH]c4ccccc34)n2)c(OC)cc1N(C)CCN(C)C	storage stability	human plasma	72 h, on ice, medium QC level	–	recovery	69.2%
O=C(c1ccccc1)N1C(c2ccc(OCC3CCN(CCCF)C3)cc2)c2ccc(O)cc2CC12CC2 (stereo not drawn)	–	C57BL/6J mice, plasma	oral, 25 mg/kg	–	AUC extrapolated	1.41%
O=C([O-])CN1CCN(CC(=O)[O-])CCN(CC(CCCc2ccccc2[N+](=O)[O-])N(CC(=O)[O-])CC(=O)[O-])CC1.[177Lu+3] (stereo not drawn)	HPLC	human serum	62 h, pH 7, 37 °C	–	intact radiolabelled complex	100%
O=C(Nc1cnccc1-c1ccc([18F])nc1)c1ccnc(NC(=O)C2CC2)c1	–	FVB/NJ mice (both sexes), hippocampus	intravenous, dose not given, 120 min, added: tariquidar 15 mg/kg i.v. pre-dose	–	SUV	0.085
CC[C@H](C)[C@H](NC(=O)[C@H](Cc1ccc(O)cc1)NC(=O)[C@@H](NC(=O)[C@H](CCCNC(=N)N)NC(=O)[C@@H](N)CC(=O)O)C(C)C)C(=O)N[C@@H](Cc1c[nH]cn1)C(=O)N1CCC[C@H]1C(=O)O	LC-MS/MS	Sprague-Dawley rats, both sexes, plasma	subcutaneous, 10 mg/kg/day, day 0	–	AUC	15.8 ng·h/mL
CN1CCC[C@]1(C)/C=C/S(=O)(=O)NC(=O)Nc1c2c(cc3c1CCC3)CCC2	refers to: Pyrexia, possibly related	human	oral, 100 mg twice daily, 14 days, multiple ascending dose	–	subjects with adverse event	0%
Cc1n[nH]c(C)c1CCCOc1cc(C(=O)NCCCCC(NC(=O)CN2CCN(CC(=O)[O-])CCN(CC(=O)[O-])CCN(CC(=O)[O-])CC2)C(=O)NCC2CCC(C(=O)NC(Cc3ccc4ccccc4c3)C(=O)NCCCCC(NC(=O)NC(CCC(=O)O)C(=O)O)C(=O)O)CC2)ccc1F.[68Ga+3] (stereo not drawn)	micro-PET/CT	mouse 22Rv1 xenograft, tumour	4 h post-injection	–	maximum tumour uptake	18.1 ± 1.19 %ID/g
CCCCC/C=C\CCCO[Si](CCCCCCN(C)C)(OCCC/C=C\CCCCC)OCCC/C=C\CCCCC	–	–	pH 5.5, formulated	–	zeta potential	3.07 mV
CC[C@H](C)[C@@H]1NC(=O)[C@H](Cc2ccc(O)cc2)NC(=O)CCCSC[C@@H](C(=O)N(CC(=O)N[C@@H](CC(C)C)C(=O)NCC(N)=O)Cc2ccc(F)cc2)NC(=O)[C@H](CC(N)=O)NC(=O)[C@H](CCC(N)=O)NC1=O	–	human	intranasal, 200 µg, 11 repeated doses	–	subjects with any TEAE	67%
COc1cccc(OC)c1-c1cc(C(=O)NC2(C(=O)O)C3CC4CC(C3)CC2C4)nn1-c1ccc(C(=O)N(C)CCCN(C)CCCN(C)C(=O)[C@H](CCCCNC(=O)[C@H](CC(C)C)NC(=O)C2OC2C(=O)O)NC(=O)CN2CCN(CC(=O)[O-])CCN(CC(=O)[O-])CCN(CC(=O)[O-])CC2)cc1C(C)C.[177Lu+3] (mixture of isomers)	–	mouse HT-29 xenograft	24 h, biodistribution	relative to: tumour over large intestine	tumour-to-large intestine ratio	17.9
C=C[C@]1(C)C[C@@H](OC(=O)CSc2ccc(NC(=O)c3ccco3)cc2)[C@]2(C)[C@H](C)CC[C@]3(CCC(=O)[C@H]32)[C@@H](C)[C@@H]1O	–	chicken, Mycoplasmoides gallisepticum infected, plasma	intramuscular, 80 mg/kg	–	Vd/F	8.58 L/kg
COc1cccc(OC)c1-c1cc(C(=O)NC2(C(=O)O)C3CC4CC(C3)CC2C4)nn1-c1ccc(C(=O)N(C)CCOCCOCCN(C)C(=O)[C@H](CCCCNC(=O)[C@H](CC(C)C)NC(=O)C2OC2C(=O)O)NC(=O)CN2CCN(CC(=O)[O-])CCN(CC(=O)[O-])CCN(CC(=O)[O-])CC2)cc1C(C)C.[177Lu+3] (mixture of isomers)	–	mouse HT-29 xenograft	72 h, biodistribution	relative to: tumour over large intestine	tumour-to-large intestine ratio	21.4
O=C(Nc1cnccc1-c1ccc([18F])cc1)c1ccnc(NC(=O)C2CC2)c1	ex vivo gamma counting	GSK-3β transgenic mice, early-stage, bladder	intravenous, 120 min, mean, P-gp inhibitor pretreatment, added: tariquidar 15 mg/kg iv	–	SUV	0.94
O=C1NN(c2ccccc2)C(=O)C1=Cc1ccc(OCCC[18F])c2ccccc12	radio-HPLC	Wistar rat, female	intravenous, 15 min	–	intact tracer in plasma	~17%
Cc1noc(C)c1Cn1cc(N2C(=O)CN(Cc3cccc(O[C@@H]4O[C@H](C(=O)O)[C@@H](O)[C@H](O)[C@H]4O)c3)C2=O)cn1	–	Sprague-Dawley rat, male	oral, 30 mg/kg of parent drug, 8 h	–	plasma concentration	188 ng/mL
Cc1cc(-c2ccc(C(=O)[C@@H]3CCCC[C@H]3C(=O)Nc3cnn4c3C(=O)NCC4)cc2)[nH]n1	–	human, faeces	oral, 200 mg, 24-48 h	relative to: dose	recovery of radioactivity per interval	18.6%
C/C(N)=N/C(=N\S(=O)(=O)c1ccc(C(F)(F)F)cc1)N1C[C@H](c2ccccc2)C(c2ccc(Cl)cc2)=N1	–	C57BL/6 mouse, liver	intravenous, 10 mg/kg	–	Cmax	27700 ng/mL
C=C(NC(=O)c1csc(-c2nc3c(cc2O)-c2nc(cs2)C(=O)NC(C(C)O)C(=O)NC(=C(C)OC)c2nc(cs2)C(=O)NC2c4nc(cs4)C(=O)NC(COC(=O)c4c5c6c(cccc6n4O)COC(=O)C(OC4CC(C)(O)C(N(C)C)C(C)O4)C2OC5)c2nc-3cs2)n1)C(N)=O (stereo not drawn)	–	ICR mice, Streptococcus pneumoniae ATCC 49169 infected, immunocompromised, blood	intravenous, 4 mg/kg/day once daily	–	half-life	2.1 h
CN(C)S(=O)(=O)c1ccc(S(=O)(=O)N2CCC(n3c(=O)[nH]c4ccccc43)CC2)cc1	HPLC	DMSO	24 h, 20 °C	–	solubility	~6700 µg/mL (≈ 14.4 mM)
N#Cc1ccnc(N2C(=O)CC[C@H]2C(=O)N(c2cc(F)cc(F)c2)[C@H](C(=O)NC2CC(F)(F)C2)c2ccccc2Cl)c1 (stereo in doubt)	–	cynomolgus monkey, plasma	intravenous, 1 mg/kg	–	clearance	3.67 mL/min/kg
CC(C)(O)c1ncc([S@](N)(=O)=NC(=O)Nc2c3c(cc4c2CCC4)CCC3)s1	refers to: infections and infestations	healthy human	oral, 100 mg, 14 days, SDD formulation, once daily	–	subjects with TEAEs	17%
Cc1ccc(OCC(=O)N(Cc2cccs2)c2ccn[nH]2)cc1	–	human plasma	750 ng/mL, 4 h, 37 °C, unit not given	relative to: time zero	remaining compound	94

A few entries again:
SMILES	test	test system	setting	how to read	endpoint	result
CCCCC/C=C\CCCO[Si](CCCCCCN(C)C)(OCCC/C=C\CCCCC)OCCC/C=C\CCCCC	–	–	pH 5.5, formulated	–	zeta potential	3.07 mV
CC[C@H](C)[C@@H]1NC(=O)[C@H](Cc2ccc(O)cc2)NC(=O)CCCSC[C@@H](C(=O)N(CC(=O)N[C@@H](CC(C)C)C(=O)NCC(N)=O)Cc2ccc(F)cc2)NC(=O)[C@H](CC(N)=O)NC(=O)[C@H](CCC(N)=O)NC1=O	–	human	intranasal, 200 µg, 11 repeated doses	–	subjects with any TEAE	67%
COc1cccc(OC)c1-c1cc(C(=O)NC2(C(=O)O)C3CC4CC(C3)CC2C4)nn1-c1ccc(C(=O)N(C)CCCN(C)CCCN(C)C(=O)[C@H](CCCCNC(=O)[C@H](CC(C)C)NC(=O)C2OC2C(=O)O)NC(=O)CN2CCN(CC(=O)[O-])CCN(CC(=O)[O-])CCN(CC(=O)[O-])CC2)cc1C(C)C.[177Lu+3] (mixture of isomers)	–	mouse HT-29 xenograft	24 h, biodistribution	relative to: tumour over large intestine	tumour-to-large intestine ratio	17.9
